Measured values collected from several papers.
Lines come from different studies, so protocols differ.
CDK3 with cyclin E: Cyclin-dependent kinase 3, with cyclin E (CDK3, Homo sapiens, UniProt Q00526)
UniProt Q00526, sequence (whole entry, looked up): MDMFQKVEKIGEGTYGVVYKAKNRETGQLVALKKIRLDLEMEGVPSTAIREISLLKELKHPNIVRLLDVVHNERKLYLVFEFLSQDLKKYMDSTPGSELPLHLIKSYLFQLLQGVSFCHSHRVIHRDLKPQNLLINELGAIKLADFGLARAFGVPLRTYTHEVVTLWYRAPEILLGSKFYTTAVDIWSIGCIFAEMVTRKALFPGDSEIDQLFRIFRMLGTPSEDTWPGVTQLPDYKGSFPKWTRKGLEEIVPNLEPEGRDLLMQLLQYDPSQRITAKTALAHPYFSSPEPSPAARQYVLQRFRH
CDK3: Cyclin-dependent kinase 3 (CDK3, Homo sapiens, UniProt Q00526)

SMILES = CCCOc1ccc(OC)c(F)c1C(=O)c1ccc(C(=O)N[C@@H]2CNC[C@H]2NC(=O)c2ccc3[nH]ncc3c2)cc1; target = CDK3 with cyclin E; assay = enzyme activity; conditions = 10 µM; endpoint = remaining activity; result = 72%
SMILES = C=CC(=O)N1CCC(COCC(=O)N2CCN(c3nc(-c4cnc(N)nc4C(F)F)nc(N4CCOC[C@@H]4C)n3)CC2)CC1; target = CDK3; assay = KINOMEscan; conditions = 1 µM; scale = reference: DMSO control; endpoint = remaining binding; result = 84%
SMILES = Cc1cc(Nc2cc(N3CCN(C)CC3)nc(Sc3ccc(NC(=O)C4CC4)cc3)n2)[nH]n1; target = CDK3 with cyclin E; assay = kinase activity, KinaseProfiler; conditions = 0.03 µM, species human; scale = reference: control; endpoint = remaining activity; result = 104%
SMILES = COc1cc(N2CCN(C)CC2)ccc1Nc1nc(N)n(C(=S)NCc2c(Cl)cccc2Cl)n1; target = CDK3; assay = enzyme activity; conditions = 10 µM; scale = reference: control; endpoint = remaining activity; result = 19%
SMILES = C=CC(=O)N1CCC(C(=O)NCC(=O)N2CCN(c3nc(-c4cnc(N)nc4C(F)F)nc(N4CCOCC4)n3)CC2)CC1; target = CDK3; assay = KINOMEscan; conditions = 1 µM; endpoint = remaining binding; result = 95%
SMILES = CNc1ncc2c(/C=C/C(=O)N3CCC(OC)CC3)nn(Cc3cccc(C(F)(F)F)c3)c2n1; target = Cyclin-dependent kinase 3, with cyclin C (CDK3, Homo sapiens, UniProt Q00526); assay = kinase activity, inhibitor; conditions = 1 µM; scale = reference: untreated control; endpoint = remaining activity; result = 87%
SMILES = COc1cc(F)ccc1-c1ncnc(Nc2cccc(C[S@](C)(=N)=O)c2)n1; target = CDK3 with cyclin E; assay = kinase activity; conditions = 10 µM, added: 10 µM ATP; endpoint = remaining activity; result = 10%
SMILES = C[C@@H](c1ccc(-n2cnc3c(N)ncnc32)cc1)N1CCc2nn(C)c(Cc3ccccc3)c2C1=O; target = CDK3; assay = KINOMEscan; conditions = 0.1 µM; scale = reference: DMSO control; endpoint = remaining binding; result = 86%
SMILES = CCN(CC)c1ccc(C2=NNC(=O)CC2C)cc1[N+](=O)[O-] (stereo not drawn); target = CDK3 with cyclin E; assay = enzyme activity, inhibitor; conditions = 10 µM; scale = reference: vehicle; endpoint = remaining activity; result = 98%

Excerpt of the above:
SMILES = CCN(CC)c1ccc(C2=NNC(=O)CC2C)cc1[N+](=O)[O-] (stereo not drawn); target = CDK3 with cyclin E; assay = enzyme activity, inhibitor; conditions = 10 µM; scale = reference: vehicle; endpoint = remaining activity; result = 98%
